Measured values gathered from unrelated publications.
Compare with care: the assays were run in different laboratories. Numbers after ± are the reported error.

Structure (SMILES)	assay	system	setting	scale	endpoint	value
COc1cccc(OC)c1-c1cc(C(=O)NC2(C(=O)O)C3CC4CC(C3)CC2C4)nn1-c1ccc(C(=O)N(C)CCCN(C)C(=O)[C@H](CCCCNC(=O)[C@H](CC(C)C)NC(=O)C2OC2C(=O)O)NC(=O)CN2CCN(CC(=O)[O-])CCN(CC(=O)[O-])CCN(CC(=O)[O-])CC2)cc1C(C)C.[177Lu+3] (mixture of isomers)		mouse HT-29 xenograft	24 h, biodistribution	relative to: tumour over large intestine	tumour-to-large intestine ratio	10.5
O=S(=O)(N[C@H]1CCO[C@@H](C2c3ccc(F)cc3CCc3cc(F)ccc32)C1)c1ccc(OC(F)(F)F)cc1		mouse	oral, 30 mg/kg, 2 h	relative to: brain over plasma	tissue/plasma ratio	0.4
C=C(NC(=O)c1csc(-c2nc3c(cc2O)-c2nc(cs2)C(=O)NC(C(C)O)C(=O)NC(=C(C)OC)c2nc(cs2)C(=O)NC2c4nc(cs4)C(=O)NC(COC(=O)c4c5c6c(cccc6n4O)COC(=O)C(OC4CC(C)(O)C(N(C)C)C(C)O4)C2OC5)c2nc-3cs2)n1)C(N)=O (stereo not shown)		male cynomolgus monkey, plasma	intravenous, 9 mg/kg, single dose, infusion		AUC(0-t)	47400 ng·h/mL
CCC1CNC(CC)CN(C(C(=O)[O-])c2ccc(C(=O)[O-])cc2)C(CC)CN(CC(=O)[O-])C(CC)CN1.[Mn+2] (stereo not shown)	ICP-MS	BALB/c mouse, blood	intravenous, 0.05 mmol/kg, 1440 min, without anaesthesia		Mn content	0.08 ± 0.02 µg/g
C[C@]12C[C@H](c3ccc(S(C)(=O)=O)cc3)C3=C4CCC(=O)C=C4CC[C@H]3[C@@H]1CC[C@@]2(O)C(F)(F)C(F)(F)F	refers to: compound (parent)	healthy human volunteers, pooled plasma	oral, 5 mg daily, day 28, 2.5 h		plasma concentration	28.4 ng/mL
C/C(N)=N/C(=N\S(=O)(=O)c1ccc(C(F)(F)F)cc1)N1C[C@H](c2ccccc2)C(c2ccc(Cl)cc2)=N1		male C57BL/6 mouse, liver	oral, 10 mg/kg		half-life	3.3 h
O=C(c1ccccc1)N1C(c2ccc(OCC3CCN(CCCF)C3)cc2)c2ccc(O)cc2CC12CC2 (stereo not shown)		C57BL/6J mice, plasma	oral, 25 mg/kg		AUC extrapolated percentage	2.61%
CC[C@H](C)[C@@H]1NC(=O)[C@H](Cc2ccc(O)cc2)NC(=O)CCCSC[C@@H](C(=O)N(CC(=O)N[C@@H](CC(C)C)C(=O)NCC(N)=O)Cc2ccc(F)cc2)NC(=O)[C@H](CC(N)=O)NC(=O)[C@H](CCC(N)=O)NC1=O		human	intranasal, 300 µg single dose		subjects with any TEAE	17%
CSCC[C@H](N)C(=O)N[C@@H](CO)C(=O)N[C@H](C(=O)N[C@@H](C)C(=O)NCC(=O)N[C@@H](CC(C)C)C(=O)N[C@@H](CCCCN)C(=O)N[C@@H](CCCCN)C(=O)N[C@@H](CCC(N)=O)C(=O)N[C@@H](Cc1c[nH]c2ccccc12)C(=O)N[C@@H](Cc1ccc(O)cc1)C(=O)N[C@@H](CCCCN)C(=O)N[C@@H](C)C(=O)N[C@@H](CO)C(=O)N[C@@H](CCC(N)=O)C(=O)N[C@@H](CC(C)C)C(=O)N[C@H](C(=O)N[C@@H](CO)C(=O)N[C@@H](CCC(=O)O)C(=O)N[C@@H](CCCCN)C(=O)N[C@H](C(=O)NCC(=O)NCC(=O)N[C@@H](C)C(N)=O)C(C)C)C(C)C)C(C)C	circular dichroism	aqueous TFE	50 µM, pH 7.4, 20 °C		m value	1.92 ± 0.3 kcal/mol/M
Cc1noc(C)c1Cn1cc(N2C(=O)CN(Cc3cccc(O[C@@H]4O[C@H](C(=O)O)[C@@H](O)[C@H](O)[C@H]4O)c3)C2=O)cn1		Sprague-Dawley rat, male	oral, 30 mg/kg of parent drug, 8 h		plasma concentration	188 ng/mL
COc1cccc(OC)c1-c1cc(C(=O)NC2(C(=O)O)C3CC4CC(C3)CC2C4)nn1-c1ccc(C(=O)N(C)CCCN(C)CCCN(C)C(=O)[C@H](CCCCNC(=O)[C@H](CC(C)C)NC(=O)C2OC2C(=O)O)NC(=O)CN2CCN(CC(=O)[O-])CCN(CC(=O)[O-])CCN(CC(=O)[O-])CC2)cc1C(C)C.[177Lu+3] (mixture of isomers)		mouse, HT-29 xenograft	168 h post injection, biodistribution	relative to: tumour over lung uptake	tumour-to-lung ratio	4.35
O=C(Nc1cnccc1-c1ccc([18F])nc1)c1ccnc(NC(=O)C2CC2)c1		mice, transgenic, GSK-3β, early-stage, bone	intravenous, dose not given, 120 min		SUV	0.346
CN(O)C(=O)CCC(=O)NCCCN(CCCCN(CCCNC(=O)CCC(=O)N(C)O)C(=O)CCC(=O)N(C)O)C(=O)CCC(=O)N(C)O.[89Zr]		human plasma	1 d, 37 °C		intact complex	99.9%

A few entries again:
Structure (SMILES)	assay	system	setting	scale	endpoint	value
COc1cccc(OC)c1-c1cc(C(=O)NC2(C(=O)O)C3CC4CC(C3)CC2C4)nn1-c1ccc(C(=O)N(C)CCCN(C)C(=O)[C@H](CCCCNC(=O)[C@H](CC(C)C)NC(=O)C2OC2C(=O)O)NC(=O)CN2CCN(CC(=O)[O-])CCN(CC(=O)[O-])CCN(CC(=O)[O-])CC2)cc1C(C)C.[177Lu+3] (mixture of isomers)		mouse HT-29 xenograft	24 h, biodistribution	relative to: tumour over large intestine	tumour-to-large intestine ratio	10.5
O=S(=O)(N[C@H]1CCO[C@@H](C2c3ccc(F)cc3CCc3cc(F)ccc32)C1)c1ccc(OC(F)(F)F)cc1		mouse	oral, 30 mg/kg, 2 h	relative to: brain over plasma	tissue/plasma ratio	0.4
